Assay results from different studies.
Compare with care: the assays were run in different laboratories. ± gives the spread as reported.
GAP50: Glideosome-associated protein 50 (GAP50, Plasmodium falciparum, UniProt Q8I2X3)
Chain of UniProt Q8I2X3 (whole entry, looked up): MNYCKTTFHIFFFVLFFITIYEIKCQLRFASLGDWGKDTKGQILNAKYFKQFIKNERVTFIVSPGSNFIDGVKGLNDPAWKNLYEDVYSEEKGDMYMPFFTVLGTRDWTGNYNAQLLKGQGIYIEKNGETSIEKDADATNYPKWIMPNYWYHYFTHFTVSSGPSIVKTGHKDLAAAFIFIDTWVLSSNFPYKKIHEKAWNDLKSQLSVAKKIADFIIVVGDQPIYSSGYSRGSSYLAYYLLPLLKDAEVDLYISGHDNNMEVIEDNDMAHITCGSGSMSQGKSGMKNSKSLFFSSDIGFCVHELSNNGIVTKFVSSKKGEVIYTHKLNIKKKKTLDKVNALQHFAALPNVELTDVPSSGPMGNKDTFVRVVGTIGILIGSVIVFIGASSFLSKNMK
USP51 ZnF-UBD domain: Ubiquitin carboxyl-terminal hydrolase 51, ZnF-UBD domain (USP51, Homo sapiens, UniProt Q70EK9)
Chain of UniProt Q70EK9 (whole entry, looked up): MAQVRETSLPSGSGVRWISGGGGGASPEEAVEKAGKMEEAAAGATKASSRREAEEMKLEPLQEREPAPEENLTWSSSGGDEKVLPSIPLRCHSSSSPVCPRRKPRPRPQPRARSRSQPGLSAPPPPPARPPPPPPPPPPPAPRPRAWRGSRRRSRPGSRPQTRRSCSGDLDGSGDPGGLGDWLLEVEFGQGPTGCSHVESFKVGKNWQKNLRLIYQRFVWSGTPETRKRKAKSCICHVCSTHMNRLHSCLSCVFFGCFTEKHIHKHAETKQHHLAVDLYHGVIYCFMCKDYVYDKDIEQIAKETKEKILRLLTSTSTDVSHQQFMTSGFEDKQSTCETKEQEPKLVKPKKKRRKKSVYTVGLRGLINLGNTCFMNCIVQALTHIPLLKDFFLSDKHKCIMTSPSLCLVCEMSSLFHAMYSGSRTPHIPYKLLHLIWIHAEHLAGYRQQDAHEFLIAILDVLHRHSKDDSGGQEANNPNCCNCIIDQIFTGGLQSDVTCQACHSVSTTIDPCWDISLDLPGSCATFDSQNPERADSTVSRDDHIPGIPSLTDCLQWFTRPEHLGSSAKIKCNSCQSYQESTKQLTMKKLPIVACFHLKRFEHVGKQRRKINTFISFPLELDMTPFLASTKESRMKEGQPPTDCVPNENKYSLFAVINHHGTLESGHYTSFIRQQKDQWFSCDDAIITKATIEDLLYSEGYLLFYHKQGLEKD
CDK9: Cyclin-dependent kinase 9 (CDK9, Homo sapiens, UniProt P50750)
Chain of UniProt P50750 (whole entry, looked up): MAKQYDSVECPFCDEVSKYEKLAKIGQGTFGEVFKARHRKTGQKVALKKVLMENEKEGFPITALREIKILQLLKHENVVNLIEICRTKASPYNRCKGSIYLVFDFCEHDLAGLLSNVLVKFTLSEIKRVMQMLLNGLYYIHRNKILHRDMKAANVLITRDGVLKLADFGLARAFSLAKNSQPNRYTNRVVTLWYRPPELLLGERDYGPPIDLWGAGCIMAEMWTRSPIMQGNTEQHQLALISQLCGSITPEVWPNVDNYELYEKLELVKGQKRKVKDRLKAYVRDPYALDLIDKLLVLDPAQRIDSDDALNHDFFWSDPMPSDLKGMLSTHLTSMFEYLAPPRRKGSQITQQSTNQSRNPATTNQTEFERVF
Kir3.1/Kir3.2: Kir3.1/Kir3.2 (Homo sapiens, UniProt P48051+P48549)
Chain of UniProt P48549 (whole entry, looked up): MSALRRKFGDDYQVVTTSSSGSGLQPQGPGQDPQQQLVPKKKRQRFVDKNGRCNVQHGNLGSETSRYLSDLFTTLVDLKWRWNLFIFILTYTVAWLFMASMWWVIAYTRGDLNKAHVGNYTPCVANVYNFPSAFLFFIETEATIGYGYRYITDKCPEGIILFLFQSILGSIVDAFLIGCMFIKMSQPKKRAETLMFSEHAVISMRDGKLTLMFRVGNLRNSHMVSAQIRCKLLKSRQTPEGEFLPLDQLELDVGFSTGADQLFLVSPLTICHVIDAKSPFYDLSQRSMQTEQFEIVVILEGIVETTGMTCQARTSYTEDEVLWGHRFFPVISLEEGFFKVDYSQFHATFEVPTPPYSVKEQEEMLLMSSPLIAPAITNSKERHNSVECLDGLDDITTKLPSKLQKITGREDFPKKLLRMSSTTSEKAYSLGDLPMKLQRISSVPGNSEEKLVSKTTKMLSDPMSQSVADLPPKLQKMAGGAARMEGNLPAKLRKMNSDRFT
Chain of UniProt P48051 (whole entry, looked up): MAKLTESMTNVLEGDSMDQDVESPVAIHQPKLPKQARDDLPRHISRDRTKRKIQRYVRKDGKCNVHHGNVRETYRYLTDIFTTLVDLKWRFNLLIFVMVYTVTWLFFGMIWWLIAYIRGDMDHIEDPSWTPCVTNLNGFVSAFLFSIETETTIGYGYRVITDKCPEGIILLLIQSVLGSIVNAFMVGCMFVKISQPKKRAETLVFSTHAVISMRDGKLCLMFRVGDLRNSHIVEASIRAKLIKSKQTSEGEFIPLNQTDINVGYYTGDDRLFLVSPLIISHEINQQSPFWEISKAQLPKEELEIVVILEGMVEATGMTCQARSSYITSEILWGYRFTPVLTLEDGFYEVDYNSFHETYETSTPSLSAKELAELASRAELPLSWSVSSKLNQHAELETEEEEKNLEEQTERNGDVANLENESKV
Chain of UniProt Q9HC29 (whole entry, unmodified, looked up): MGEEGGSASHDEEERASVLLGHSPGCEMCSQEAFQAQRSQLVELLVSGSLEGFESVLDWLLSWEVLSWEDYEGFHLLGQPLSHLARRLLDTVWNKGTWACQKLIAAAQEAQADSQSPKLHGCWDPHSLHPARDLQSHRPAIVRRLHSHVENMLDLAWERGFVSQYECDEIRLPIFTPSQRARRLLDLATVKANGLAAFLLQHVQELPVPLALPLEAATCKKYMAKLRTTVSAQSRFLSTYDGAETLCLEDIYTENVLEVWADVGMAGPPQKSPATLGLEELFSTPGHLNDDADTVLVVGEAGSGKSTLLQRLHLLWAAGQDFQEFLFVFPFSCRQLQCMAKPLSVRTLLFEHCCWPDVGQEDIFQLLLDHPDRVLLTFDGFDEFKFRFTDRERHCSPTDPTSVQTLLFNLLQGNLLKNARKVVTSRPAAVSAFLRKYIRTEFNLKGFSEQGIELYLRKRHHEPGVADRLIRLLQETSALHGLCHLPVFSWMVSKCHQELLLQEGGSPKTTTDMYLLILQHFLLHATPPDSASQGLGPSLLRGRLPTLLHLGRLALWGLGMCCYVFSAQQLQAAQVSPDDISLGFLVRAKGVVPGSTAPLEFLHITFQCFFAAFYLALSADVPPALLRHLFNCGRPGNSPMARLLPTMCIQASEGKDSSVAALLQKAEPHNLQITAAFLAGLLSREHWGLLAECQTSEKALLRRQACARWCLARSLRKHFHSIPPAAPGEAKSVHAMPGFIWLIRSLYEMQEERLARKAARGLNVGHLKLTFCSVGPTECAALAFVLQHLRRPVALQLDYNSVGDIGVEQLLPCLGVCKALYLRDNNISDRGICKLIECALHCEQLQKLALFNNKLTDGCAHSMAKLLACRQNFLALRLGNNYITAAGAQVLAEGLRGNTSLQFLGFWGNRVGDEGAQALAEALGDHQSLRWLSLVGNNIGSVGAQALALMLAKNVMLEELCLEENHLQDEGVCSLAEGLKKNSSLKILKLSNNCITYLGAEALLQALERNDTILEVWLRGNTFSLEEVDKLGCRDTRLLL
Chain of UniProt P00388 (whole entry, unmodified, looked up): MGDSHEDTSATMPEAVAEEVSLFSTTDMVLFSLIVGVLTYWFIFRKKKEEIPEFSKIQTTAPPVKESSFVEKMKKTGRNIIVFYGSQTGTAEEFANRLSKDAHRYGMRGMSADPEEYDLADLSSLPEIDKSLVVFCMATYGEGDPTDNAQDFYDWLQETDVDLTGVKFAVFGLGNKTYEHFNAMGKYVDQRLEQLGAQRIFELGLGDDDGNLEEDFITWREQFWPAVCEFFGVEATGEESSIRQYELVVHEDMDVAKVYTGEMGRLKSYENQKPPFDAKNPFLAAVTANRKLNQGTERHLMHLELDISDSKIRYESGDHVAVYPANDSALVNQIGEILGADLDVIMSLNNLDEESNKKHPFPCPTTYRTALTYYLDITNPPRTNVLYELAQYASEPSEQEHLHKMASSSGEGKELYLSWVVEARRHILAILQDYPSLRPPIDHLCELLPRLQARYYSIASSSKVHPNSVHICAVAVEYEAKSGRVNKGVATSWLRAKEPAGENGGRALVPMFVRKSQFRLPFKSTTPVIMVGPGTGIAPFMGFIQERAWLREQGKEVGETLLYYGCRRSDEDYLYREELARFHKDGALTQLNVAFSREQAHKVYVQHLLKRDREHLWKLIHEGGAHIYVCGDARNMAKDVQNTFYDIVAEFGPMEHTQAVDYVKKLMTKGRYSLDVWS
Chain of UniProt Q9UHD2 (whole entry, looked up): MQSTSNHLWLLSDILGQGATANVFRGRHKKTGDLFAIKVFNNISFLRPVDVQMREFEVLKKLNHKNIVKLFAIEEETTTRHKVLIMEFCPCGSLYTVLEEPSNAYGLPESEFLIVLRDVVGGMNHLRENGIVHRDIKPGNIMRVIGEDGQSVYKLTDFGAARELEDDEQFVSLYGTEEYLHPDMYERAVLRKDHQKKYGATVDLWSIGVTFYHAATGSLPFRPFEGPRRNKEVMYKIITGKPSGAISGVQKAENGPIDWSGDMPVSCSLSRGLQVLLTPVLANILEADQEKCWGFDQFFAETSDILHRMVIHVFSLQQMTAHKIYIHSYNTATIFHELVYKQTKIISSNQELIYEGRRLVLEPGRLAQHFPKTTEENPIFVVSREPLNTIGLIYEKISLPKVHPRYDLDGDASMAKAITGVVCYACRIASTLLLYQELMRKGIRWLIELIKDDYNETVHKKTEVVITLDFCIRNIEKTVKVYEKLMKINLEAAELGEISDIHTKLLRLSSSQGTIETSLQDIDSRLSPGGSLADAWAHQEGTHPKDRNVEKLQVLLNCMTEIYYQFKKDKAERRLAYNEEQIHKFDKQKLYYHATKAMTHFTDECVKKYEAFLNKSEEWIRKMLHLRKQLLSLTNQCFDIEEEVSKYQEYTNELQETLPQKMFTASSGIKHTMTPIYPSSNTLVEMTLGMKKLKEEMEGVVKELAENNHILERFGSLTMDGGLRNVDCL

Compound | target | test | system | conditions | quantity | value
O=C(Nc1ccc(-c2ccccc2)cc1)C1=C(O)C(Cc2ccccc2)OC1=O (centres unmarked) | GAP50 | binding, surface plasmon resonance |  | 1:1 binding model | Kd | 38.5 µM
CC(C)=CCCC(C)CCO (centres unmarked) | uncharacterized protein (Bradysia odoriphaga, UniProt A0A2S0X9G4) | binding, competitive fluorescence displacement |  |  | Ki | > 50 µM
CC(C)CCN1C(=O)C(C2=NS(=O)(=O)c3cc(NS(C)(=O)=O)ccc3N2)=C(O)[C@@H]2[C@H]3CC[C@H](C3)[C@@H]21 | GAP50 | binding, surface plasmon resonance |  | 1:1 binding model | Kd | 17.6 µM
COc1ccc(/C=C/c2ccc(/C=C/c3ccc(OC)c(C(=O)O)c3)c(I)c2)cc1C(=O)O | Microtubule-associated protein tau, fibrils (MAPT, Homo sapiens, UniProt P10636) | binding | synthetic 2N4R tau filaments 1 µM | together with: thioflavin S | AC50 | > 10 µM
CN1CCN(c2ccc(Nc3ncc4cc(C#N)c(=O)n(C5CCCC5)c4n3)cc2)CC1 | CAMK1D (Homo sapiens, UniProt Q8IU85) |  |  |  | IC50 | 2.45 µM
CCOC(C)=O | uncharacterized protein (Drosophila suzukii, UniProt A0AB39ZGK5) | binding, bis-ANS competition fluorescence |  | pH 7.4, together with: bis-ANS | IC50 | > 50 µM
O=C(O)CCc1cn2cccnc2n1 | USP51 ZnF-UBD domain |  |  |  | Kd | > 1000 µM
CC(=O)Nc1ccc(-c2noc(C[C@H]3CCCN(Cc4cccc(F)c4C)C3)n2)cc1 | GAP50 | binding, surface plasmon resonance |  | 1:1 binding model | Kd | 50.9 µM
O=C(O)CNC(=O)c1ccc(S(=O)(=O)N2CCC(n3c(=O)oc4ccccc43)CC2)cc1 | USP51 ZnF-UBD domain |  |  |  | Kd | > 1000 µM
CC(C)(C)c1cnc(CSc2cnc(NC(=O)C3CCN(C(=O)CCCCCN4Cc5cc6c(cc5C4)C(=O)N(C4CCC(=O)NC4=O)C6=O)CC3)s2)o1 (centres unmarked) | CDK9 | degrader, Western blot | TC-71 |  | DC50 | 0.0015 ± 0.0004 µM
O=C(COc1cccc(Cl)c1Cl)Nc1cc(C2CC2)nn1C1CCC(F)(F)CC1 | Kir3.1/Kir3.2 | activator, thallium flux | HEK293 |  | EC50 | 0.294 µM
C[C@H](N)C(=O)N[C@H](CCC(=O)O)C(N)=O | Nucleotide-binding oligomerization domain-containing protein 2, LRR domain (NOD2, Homo sapiens, UniProt Q9HC29, R877A) | surface plasmon resonance |  | LRR mutant R877A | Kd | 1.22 ± 0.155 µM
CC(C)(C)c1cnc(CSc2cnc(NC(=O)C3CCN(C(=O)CCCCCCN4Cc5cc6c(cc5C4)C(=O)N(C4CCC(=O)NC4=O)C6=O)CC3)s2)o1 (centres unmarked) | CDK9 | degrader, Western blot | SK-UT-1 uterine leiomyosarcoma | 6 h | DC50 | < 0.01 µM
O=C(O)CCC(=O)c1ccc(S(=O)(=O)N2CCCC2)cc1 | USP51 ZnF-UBD domain |  |  |  | Kd | > 1000 µM
O=C(CNc1cccc2c1C(=O)N(C1CCC(=O)NC1=O)C2=O)NCCCCCCN1CCc2c(c3ccccc3n2Cc2ccc(C(=O)NO)cc2)C1 (centres unmarked) | HDAC10 (Homo sapiens, UniProt Q969S8) | degrader, western blot | MM1.S cells | 24 h | DC50 | 0.029 ± 0.0011 µM
O=C(COc1ccc(C(F)(F)F)cc1C(F)(F)F)Nc1cc(C2CCC2)nn1C1CCC(F)(F)CC1 | Kir3.1/Kir3.2 | activator, thallium flux | HEK293 |  | EC50 | 1.3 µM
C[C@H]1[C@@H](c2cccc(C(F)(F)F)c2)OC(=O)N1C(=O)NCc1cncc2ccccc12 | GAP50 | binding, surface plasmon resonance |  | 1:1 binding model | Kd | 55.3 µM
CCc1cc(NC(=O)COc2ccc(C(F)(F)F)cc2C(F)(F)F)n(CC(F)(F)F)n1 | Kir3.1/Kir3.2 | activator, thallium flux | HEK293 |  | EC50 | 0.89 µM
CC[C@@H]1[C@H](F)C(=O)N[C@@H]1COc1nccc2cc(C(N)=O)c(OC)cc12 | TBK1 (Homo sapiens, UniProt Q9UHD2) | ATP probe binding, KiNativ profiling, measured: Lys1 probe site | THP-1 cell lysate |  | IC50 | > 5 µM
NC(=O)c1ccc[n+]([C@@H]2O[C@H](COP(=O)(O)OP(=O)(O)OC[C@H]3O[C@@H](n4cnc5c(N)ncnc54)[C@H](OP(=O)(O)O)[C@@H]3O)[C@@H](O)[C@H]2O)c1 | NADPH--cytochrome P450 reductase (Rattus norvegicus, UniProt P00388, W677A) | cytochrome c reduction, inhibitor |  | together with: NADPH | Ki | 5.1 ± 0.42 µM
